Experimental data gathered from unrelated publications.
Each numbered part is a random draw from the data of one study; scales do not carry over between parts. Several values in a cell are separate wells, animals, samples, runs or records.

Study 1 — cell line: HEK-293T/ACE2; concentration: 10 µM; time: 16 h; reference: vehicle
SMILES | viability [%]
C[C@]12CC[C@H]3[C@@H](CC[C@@]45O[C@@H]4C(O)=C(C#N)C[C@]35C)[C@@H]1CC[C@@H]2O | 100
[H]/N=C(/NCCCCC)N/N=C/c1c[nH]c2ccc(OC)cc12 | 94.5
CC(C)N1CCN(c2ccc(OCC3COC(Cn4cncn4)(c4ccc(Cl)cc4Cl)O3)cc2)CC1 (stereo not drawn) | 97.8
CC(NCCc1ccc(O)cc1)C(O)c1ccc(O)cc1 (stereo not drawn) | 101

Study 2 — read-out: enzyme activity; action: inhibitor; concentration: 20 µM; setting: primary screen
Target: Replicase polyprotein 1ab, main protease (rep, Severe acute respiratory syndrome coronavirus 2, UniProt P0DTD1)
SMILES | inhibition
CCCCC1C(=O)N(c2ccccc2)N(c2ccc(O)cc2)C1=O (stereo not drawn) | 62.9%
[NH2][Pt]([NH2])([Cl])[Cl] | 100%
CC(=O)N=c1sc(S(N)(=O)=O)nn1C | 44.8%

Study 3 — action: inhibitor; concentration: 20 µM
Target: Replicase polyprotein 1ab, nsp13 helicase (rep, Severe acute respiratory syndrome coronavirus 2, UniProt P0DTD1)
SMILES | inhibition
CCOC(=O)[C@@H](N)Cc1ccc(O)c(O)c1 | 3.52%
NC(=O)c1ccc[n+]([C@@H]2O[C@H](COP(=O)([O-])OP(=O)(O)OC[C@H]3O[C@@H](n4cnc5c(N)ncnc54)[C@H](O)[C@@H]3O)[C@@H](O)[C@H]2O)c1 | -0.72% and 7.75%
COc1ccc(-c2cc(C(F)F)nn2-c2ccc(S(N)(=O)=O)cc2)cc1F | 4.04%
COC(=O)C(Cc1ccc(OCCn2c(=O)sc3cc(C(=O)c4ccccc4)ccc32)cc1)C(=O)OC | -0.41%
CCCCC[C@H](O)/C=C/[C@@H]1[C@H]2C/C(=C/CCCC(=O)O)O[C@H]2C[C@H]1O | -2.78%
Nc1ncnc2c1ncn2[C@@H]1O[C@H](CO)[C@@H](O)[C@H]1O | -0.24%
Cc1cccc(/C=C/c2ccccc2)n1 | 4.19%
COc1ccc(Nc2ncnc3ccc(OC)cc23)cc1 | -0.92%
c1cc2c3c(c1)c1c(n3CCNC2)CCCC1 | 3.89%
CCCCOc1cc(CC2CNC(=O)N2)ccc1OC (stereo not drawn) | 0.28%
CO[C@@H]1[C@H](OC(=O)NC(=O)CCl)CC[C@]2(CO2)[C@H]1[C@@]1(C)O[C@@H]1CC=C(C)C | -0.26% and 3.27%
COc1cc2nc(N3CCN(C(=O)C4CCCO4)CC3)nc(N)c2cc1OC (stereo not drawn) | 9.81%
N[C@@H]1C[C@H]1c1ccccc1 (racemic) | -0.3%
COc1ccc2c(c1)CN(C)CC2c1ccc(Cl)c(Cl)c1 (stereo not drawn) | -1.02%
NC(=O)CN1CCCC1=O | 2.87%
CN(C)CCn1cc(S(=O)(=O)c2cccc(F)c2)c2cccnc21 | 10.3%
Clc1ccccc1C(c1ccccc1)(c1ccccc1)n1cccn1 | 8.62%
CN(c1nccc(=O)[nH]1)C1CCN(c2nc3ccccc3n2Cc2ccc(F)cc2)CC1 | 3.38%
CCC(CC)C(c1ccc(Nc2nc3ccccc3s2)cc1)n1cncn1 (stereo not drawn) | -0.23%
CC[N+](C)(CC)CCOC(=O)C(O)(c1ccccc1)C1CCCCC1 (stereo not drawn) | 5.65%
NCCNCCNCCN | -3.12%
O=C(O)c1cc2occc2[nH]1 | 0.36%
CN1CCC[C@@H]1Cc1c[nH]c2ccc(CCS(=O)(=O)c3ccccc3)cc12 | 6.35%
Nc1nc(-c2ccc(Cl)c(Cl)c2)c(-c2ccncc2)s1 | 23.6%

Study 4 — method: protein-binding microarray; molecule type: double-stranded DNA, one strand shown; matrix: in vitro; concentration: not given; direction: higher = stronger binding
Target: Protein C-ets-1 (ETS1, Homo sapiens, UniProt P14921, residues 1-441, K379A, full length assumed)
Setting: k-mer, scored over probes, only values ≥0.25
Construct (chain): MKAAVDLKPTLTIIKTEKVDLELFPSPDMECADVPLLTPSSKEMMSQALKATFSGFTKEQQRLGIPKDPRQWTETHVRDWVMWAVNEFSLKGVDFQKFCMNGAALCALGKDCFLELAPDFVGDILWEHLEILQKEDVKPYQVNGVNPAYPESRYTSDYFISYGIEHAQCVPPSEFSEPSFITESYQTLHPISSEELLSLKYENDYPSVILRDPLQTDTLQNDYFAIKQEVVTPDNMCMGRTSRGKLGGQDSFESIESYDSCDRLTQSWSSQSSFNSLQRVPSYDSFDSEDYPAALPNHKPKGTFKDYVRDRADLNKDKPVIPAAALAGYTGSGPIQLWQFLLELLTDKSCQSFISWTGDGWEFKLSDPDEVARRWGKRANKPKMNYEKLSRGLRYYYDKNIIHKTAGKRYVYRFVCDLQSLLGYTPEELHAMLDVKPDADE
Strand | E-score
CATCCCGG | 0.373
CCGGGAGA | 0.272
GCCGGATA | 0.274
ATATTAGG | 0.274

Study 5 — method: universal PBM; molecule type: double-stranded DNA, one strand shown; matrix: in vitro; concentration: not given; direction: higher = stronger binding
Target: Sal-like protein 4, full length isoform B (SALL4, Homo sapiens, UniProt Q9UJQ4-2, residues 1-616)
Setting: 8-mer, flanks averaged, mean of replicates
Target sequence (chain): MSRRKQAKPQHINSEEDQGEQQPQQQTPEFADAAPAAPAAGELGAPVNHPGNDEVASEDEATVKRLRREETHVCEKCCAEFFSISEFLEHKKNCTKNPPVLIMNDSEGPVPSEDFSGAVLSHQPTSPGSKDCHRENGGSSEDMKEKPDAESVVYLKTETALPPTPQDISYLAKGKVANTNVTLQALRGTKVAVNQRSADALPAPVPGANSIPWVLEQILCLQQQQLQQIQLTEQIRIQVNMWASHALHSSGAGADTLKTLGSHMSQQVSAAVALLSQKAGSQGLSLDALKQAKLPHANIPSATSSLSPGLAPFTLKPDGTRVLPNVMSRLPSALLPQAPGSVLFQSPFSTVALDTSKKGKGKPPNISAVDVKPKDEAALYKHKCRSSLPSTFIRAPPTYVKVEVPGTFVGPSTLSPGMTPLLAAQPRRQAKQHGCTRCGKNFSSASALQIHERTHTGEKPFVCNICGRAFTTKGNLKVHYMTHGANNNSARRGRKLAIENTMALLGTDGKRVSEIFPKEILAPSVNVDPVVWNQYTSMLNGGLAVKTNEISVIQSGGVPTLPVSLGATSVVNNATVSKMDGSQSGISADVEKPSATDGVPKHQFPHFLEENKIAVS
Strand | E-score
CACATAAG | 0.19
CAGCAAGC | -0.193
GGTACTGA | -0.168
CGAACATA | 0.263
ACGGAAAT | 0.118
ATCTTATC | 0.226
ACCGTGCG | -0.128
AATGCTGT | 0.118

Study 6 — method: RNA Bind-n-Seq; molecule type: RNA; matrix: in vitro; concentration: 1 µM; setting: whole 134-nt RNA, ends assumed; added: 150 mM KCl; reference: input library; direction: higher = stronger binding
Target: Ras GTPase-activating protein-binding protein 1, C-terminal RGG region (G3BP1, Homo sapiens, UniProt Q13283)
Chain of UniProt Q13283 (whole entry, looked up): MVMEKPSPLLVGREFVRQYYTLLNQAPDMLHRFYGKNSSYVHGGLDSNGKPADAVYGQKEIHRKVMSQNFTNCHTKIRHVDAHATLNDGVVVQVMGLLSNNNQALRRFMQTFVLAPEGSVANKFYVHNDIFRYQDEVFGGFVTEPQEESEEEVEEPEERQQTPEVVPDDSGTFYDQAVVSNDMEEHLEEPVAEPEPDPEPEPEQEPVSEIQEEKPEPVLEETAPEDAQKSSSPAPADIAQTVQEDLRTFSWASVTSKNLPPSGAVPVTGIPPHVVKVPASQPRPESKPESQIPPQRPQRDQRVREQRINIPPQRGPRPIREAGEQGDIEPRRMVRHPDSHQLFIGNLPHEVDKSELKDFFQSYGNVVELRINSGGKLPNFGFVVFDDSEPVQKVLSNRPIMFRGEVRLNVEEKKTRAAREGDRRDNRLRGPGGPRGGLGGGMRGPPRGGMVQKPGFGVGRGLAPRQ
Strand | log2 enrichment
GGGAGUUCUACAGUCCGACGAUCCACAGACAACACGCACCCACACAGACAAAAAGGGAAGGGGUUGGGAUGGGGACAGGGUGCACAGCAGGGCGGGGUAGGACCCCAGCCCCUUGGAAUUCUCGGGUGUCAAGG | -0.307
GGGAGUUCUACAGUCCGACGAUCACCAUGUAGGUGGGCAUCUUUGGGAAGUGGGGCAAGGGGGGGAUAGGGAGGGGGGUAACACUUUGGGAACAGGUGGUCCCAGGUCGUUUCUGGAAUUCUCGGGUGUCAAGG | -0.833
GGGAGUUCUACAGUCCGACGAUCCCUCAAGUCCUGUGCUACACAUCGUAUGUACCGAAUCGGGAGGGGAGGGGAGGAAAGUAUUAUGUUACGCCGUUCGGAUCUGCACUUCCAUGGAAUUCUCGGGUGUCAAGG | -0.0055
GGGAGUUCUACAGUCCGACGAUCCCUGUGCUACACAUCGUAUGUACCGAAUCGGGGUUUUUUGGGGUUUUUUGGGGUUUUUUGGAAAGUAUUAUGUUACGCCGUUCGGAUCUGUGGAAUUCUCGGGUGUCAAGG | -0.936
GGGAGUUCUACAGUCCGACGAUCAGUCCUGUGCUACACAUCGUAUGUACCGAAUCGGGAAAAAAAGGGAAAGGGAAAGGGAAAGUAUUAUGUUACGCCGUUCGGAUCUGCACUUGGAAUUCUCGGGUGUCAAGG | 0.105
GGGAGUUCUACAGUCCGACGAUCUCAAGUCCUGUGCUACACAUCGUAUGUACCGAAUCGGGAAGGAAGGGGAAGGGGAAAGUAUUAUGUUACGCCGUUCGGAUCUGCACUUCCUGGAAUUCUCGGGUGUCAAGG | 1.14
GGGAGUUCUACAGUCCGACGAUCUGCCUGUAUGGAGUGGAAUGAAUGUUGCUGGUGUCUCUCUGAAGACUCUGCACCCAGAUUUAGGGACUGAUAAAGAUAAGGAACAGUGGAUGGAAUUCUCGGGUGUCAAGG | -0.944
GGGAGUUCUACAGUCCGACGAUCGUCCUGUGCUACACAUCGUAUGUACCGAAUCGGGGAAAAAGGGAAAAAGGGAAAAAGGAAAGUAUUAUGUUACGCCGUUCGGAUCUGCACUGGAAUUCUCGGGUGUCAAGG | -1.19

For quick reference, copied from above (study 4):
Strand | E-score
CCGGGAGA | 0.272
GCCGGATA | 0.274
ATATTAGG | 0.274
